Results from different studies.
Numbers after ± are the reported error.
cas9: CRISPR-associated endonuclease Cas9/Csn1 (cas9, Streptococcus pyogenes serotype M1, UniProt Q99ZW2)

CCC(C(=O)Nc1cc(NC2CCOCC2)ccc1C)n1cc(Br)cc2nc(SCc3ccc(F)cc3)nc1-2 (stereo not drawn) — IC50 (Calpain-1 catalytic subunit (CAPN1, Homo sapiens, UniProt P07384); enzyme activity): > 100 µM
COc1cccc2c1C(=O)c1c(O)c3c(c(O)c1C2=O)C[C@@](O)(C(C)=O)C[C@@H]3O[C@H]1C[C@H](N)[C@H](O)[C@H](C)O1 — IC50 (cas9; circular plasmid substrate; Streptococcus pyogenes): 50 to 100 µM
O=Cc1ccccc1 — IC50 (uncharacterized protein (Bradysia odoriphaga, UniProt A0A2S0X9G4); binding, competitive fluorescence displacement; pH 7.4): > 50 µM
CCN1CCN(Cc2ccc(Nc3nc4ccc(Oc5ccnc(NC(=O)CCN(C)C)c5)cc4n3C)cc2C(F)(F)F)CC1 — IC50 (Protein kinase 6 (Plasmodium falciparum, UniProt Q8IDW1); enzyme activity, inhibitor): 2.9 ± 0.5 µM
COc1cc(Nc2ncc(F)c(Nc3ccc4c(n3)NC(=O)C(C)(C)O4)n2)cc(OC)c1OC — IC50 (Sodium-dependent serotonin transporter, cocaine binding site (SLC6A4, Homo sapiens, UniProt P31645); binding; cocaine binding site): > 10 µM
C[C@H]1CN(c2n[nH]c3nc(N[C@H]4CC[C@H](NS(=O)(=O)CCC(F)(F)F)CC4)ncc23)CCO1 — IC50 (Small ribosomal subunit protein uS3 (Homo sapiens, UniProt P23396); biochemical): ≥ 20 µM
CCOC(=O)c1c(NCc2ccc(SC)cc2)c2cccc(C)c2[nH]c1=O — IC50 (Anoctamin-6 (ANO6, Homo sapiens, UniProt Q4KMQ2); anion channel activity, inhibitor, YFP fluorescence quenching; FRT cells expressing ANO6): 1.64 ± 0.2 µM
Nc1ccn([C@@H]2O[C@H](COP(=O)(O)OP(=O)(O)OP(=O)(O)O)[C@@H](O)[C@H]2O)c(=O)n1 — IC50 (pyrG (Escherichia coli, UniProt P0A7E5); enzyme activity; together with: 6.0 mM glutamine, 1.0 mM ATP, 0.05 mM UTP): 107 µM
Nc1c2c(nc3c1C(c1cccc([N+](=O)[O-])c1)c1ccc(OS(=O)(=O)c4ccc(F)cc4)cc1O3)CCCC2 (stereo not drawn) — IC50 (Acetylcholinesterase (ACHE, Homo sapiens, UniProt P22303); enzyme activity, inhibitor): 0.625 µM
COC(=O)C1=C(C)NC(C)=C(C(=O)OCCN(C)Cc2ccccc2)C1c1cccc([N+](=O)[O-])c1 (stereo not drawn) — IC50 (Bile acid receptor (NR1H4, Homo sapiens, UniProt Q96RI1); SRC2 coactivator recruitment; together with: chenodeoxycholic acid 50 µM): 1.59 ± 0.57 µM
CNCC[C@@H](Oc1ccccc1C)c1ccccc1 — IC50 (Neuronal acetylcholine receptor; alpha9/alpha10 (Homo sapiens, UniProt Q9GZZ6+Q9UGM1); inhibitor): 6.1 ± 2.2 µM
CCN(CC)C(=O)C1CN2CCc3cc(OC)c(OC)cc3C2CC1OC(C)=O (stereo not drawn) — IC50 (Alpha-2B adrenergic receptor (ADRA2B, Homo sapiens, UniProt P18089); inhibitor): 0.89 µM
CC(C)[C@H](NC(=O)[C@@H](NC(=O)[C@H](CCC(=O)O)NC(=O)[C@@H](NC(=O)[C@H](Cc1ccccc1)NC(=O)[C@H](C)NC(=O)[C@H](CO)NC(=O)[C@@H](NC(=O)[C@@H](N)CO)[C@@H](C)O)C(C)C)[C@@H](C)O)C(=O)O — IC50 (HLA class I histocompatibility antigen, B alpha chain, allele B*18:01 (Homo sapiens, UniProt P01889); peptide-MHC binding, radioligand competition binding): > 70 µM
CS[C@H]1SC[C@H]2C(=O)N(C)[C@@H](C(C)C)C(=O)OC[C@@H](NC(=O)c3cnc4ccccc4n3)C(=O)N[C@@H](C)C(=O)N(C)[C@@H]1C(=O)N(C)[C@@H](C(C)C)C(=O)OC[C@@H](NC(=O)c1cnc3ccccc3n1)C(=O)N[C@@H](C)C(=O)N2C — IC50 (cas9; linear substrate; Streptococcus pyogenes): 100 to 200 µM
O=c1c2cc(Cl)ccc2[nH]c(=S)n1Cc1ccc(-c2nnn[nH]2)nc1 — IC50 (Potassium voltage-gated channel subfamily KQT member 1, with KCNE1 (KCNQ1, Homo sapiens, UniProt P51787); KCNQ1/minK current, inhibitor, manual patch clamp; CHO cells): 0.15 µM
